Results collected from several papers.
Each line is one published result; not all experiments were run side by side.
Organism: Human immunodeficiency virus 1

SMILES | test | system | conditions | IC50 [µM]
Cc1ccc(-c2cn(C)c3nc(Cl)ccc23)cc1 | cell growth or viability, MTT | TZM-bl | 48 h | 25.3
COC(=O)c1ccc(Oc2ccccc2NC(=O)c2ccccc2OC)cc1 | viral replication | MT4 | 7 days | 40.6
COc1ccc(Cn2cc(-c3ccsc3)c3ccc(-c4ccncc4)nc32)cc1 | cell growth or viability, MTT | TZM-bl | 48 h | 17.3
CC(C)(N)C(NC(=O)c1ccc(-c2ccc3c(c2)OCO3)[nH]1)c1ncc(CO)s1 (stereo not drawn) | viral replication, ELISA | MT2 |  | 4.3
O=C(O)c1cc(O)c(O)c(O)c1 | viral replication, inhibitor | TZM-bl, NL43 | 48 h | 6.24
Cc1nnc(C(=O)NC(C)(C)c2nc(C(=O)NCc3ccc(F)cc3)c(O)c(=O)n2C)o1 | cell growth or viability, MTT | TZM-bl | 48 h | > 200
COc1ccccc1S(=O)(=O)Nc1ccccc1Sc1ccc(N)cc1 | viral replication | MT4 | 7 days | 21
NCC(NC(=O)c1ccc(-c2ccc3c(c2)OC(F)(F)O3)[nH]1)c1ncc(CO)s1 (stereo not drawn) | viral replication, ELISA | MT2 |  | 2.7
Cn1cc(-c2ccccc2)c2ccc(-c3ccsc3)nc21 | cell growth or viability, MTT | TZM-bl | 48 h | > 200
COc1ccccc1NC(=O)c1ccccc1Sc1ccc([N+](=O)[O-])cc1 | viral replication | MT4 | 7 days | > 100
CN(C)CCCn1c(=O)c2cc(Br)c3c(=O)n(CCCN(C)C)c(=O)c4c5[nH]c6ccc(C(=O)O)cc6[nH]c5c(c1=O)c2c34 | viral replication | TZM-bl, NL43 | 48 h | 0.863
COc1ccccc1NC(=O)c1ccccc1Oc1ccc2c(c1)OCO2 | viral replication | MT4 | 7 days | 102
Cn1cc(-c2ccccc2)c2ccc(Cl)nc21 | cell growth or viability, MTT | TZM-bl | 48 h | 17.5
Cc1nc(C(NC(=O)c2ccc(-c3ccc4c(c3)OCO4)[nH]2)C(C)(C)N)sc1CO (stereo not drawn) | viral replication, ELISA | MT2 |  | 2.3
CN(C)CCCn1c(=O)c2cc(Br)c3c(=O)n(CCCN(C)C)c(=O)c4c5[nH]c6ncccc6[nH]c5c(c1=O)c2c34 | viral replication | TZM-bl, NL43 | 48 h | 0.0635
COc1ccccc1NC(=O)c1ccccc1OCc1ccc2c(c1)OCO2 | viral replication | MT4 | 7 days | 45.2
Cn1cc(-c2ccc3c(c2)OCO3)c2ccc(Cl)nc21 | cell growth or viability, MTT | TZM-bl | 48 h | 44.9
COc1ccc(COc2ccccc2C(=O)Nc2ccccc2OC)cc1 | viral replication | MT4 | 7 days | > 100
Cn1cc(-c2ccc(F)cc2)c2ccc(Cl)nc21 | cell growth or viability, MTT | TZM-bl | 48 h | 5.53
COC(=O)c1ccc(COc2ccccc2NC(=O)c2ccccc2OC)cc1 | viral replication | MT4 | 7 days | > 100
NCC(NC(=O)c1ccc(-c2ccc3c(c2)OCO3)[nH]1)c1ncc(CO)s1 (stereo not drawn) | viral replication, ELISA | MT2 |  | 4.5
